Experimental data pooled from the literature.
Every numbered part comes from another study and shows a few of its results, in no order.
UniProt P16220, sequence (whole entry, looked up): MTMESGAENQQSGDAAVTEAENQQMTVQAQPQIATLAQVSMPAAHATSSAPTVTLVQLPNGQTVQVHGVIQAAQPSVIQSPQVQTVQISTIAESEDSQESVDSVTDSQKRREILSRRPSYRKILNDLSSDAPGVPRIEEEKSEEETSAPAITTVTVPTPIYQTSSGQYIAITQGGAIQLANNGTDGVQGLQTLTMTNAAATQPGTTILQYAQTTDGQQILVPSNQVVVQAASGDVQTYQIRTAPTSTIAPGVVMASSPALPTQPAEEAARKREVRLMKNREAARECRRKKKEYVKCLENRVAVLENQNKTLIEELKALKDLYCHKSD
UniProt P42224, sequence (whole entry, looked up): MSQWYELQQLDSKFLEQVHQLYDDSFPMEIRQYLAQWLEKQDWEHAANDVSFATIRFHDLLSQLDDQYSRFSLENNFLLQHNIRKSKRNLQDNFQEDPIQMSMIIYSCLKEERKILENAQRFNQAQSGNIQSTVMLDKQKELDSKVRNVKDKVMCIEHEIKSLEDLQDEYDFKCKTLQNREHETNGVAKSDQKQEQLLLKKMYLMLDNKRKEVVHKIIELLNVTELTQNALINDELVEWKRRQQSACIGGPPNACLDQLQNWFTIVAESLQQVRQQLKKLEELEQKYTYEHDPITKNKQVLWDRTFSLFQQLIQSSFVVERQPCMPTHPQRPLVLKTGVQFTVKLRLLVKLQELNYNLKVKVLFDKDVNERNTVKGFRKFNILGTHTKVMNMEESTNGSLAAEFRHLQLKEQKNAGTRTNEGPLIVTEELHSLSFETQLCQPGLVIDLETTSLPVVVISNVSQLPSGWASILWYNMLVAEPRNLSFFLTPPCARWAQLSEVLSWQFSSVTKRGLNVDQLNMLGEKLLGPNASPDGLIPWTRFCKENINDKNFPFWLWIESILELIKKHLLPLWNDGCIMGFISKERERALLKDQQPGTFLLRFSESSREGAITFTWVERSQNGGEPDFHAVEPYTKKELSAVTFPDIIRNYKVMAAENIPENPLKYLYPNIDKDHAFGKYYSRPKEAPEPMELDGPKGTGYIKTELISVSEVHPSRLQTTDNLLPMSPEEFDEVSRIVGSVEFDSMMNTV

Series 1
Target: RNA binding protein fox-1 homolog 2, RRM domain, GST-SBP tag (RBFOX2, Homo sapiens, UniProt O43251-10, residues 100-194)
Method: RNA Bind-n-Seq
Molecule type: RNA
Matrix: in vitro
Tested at: 365 nM
Setting: natural RNA segment, single round, ends assumed
Relative to: no-protein control
Direction: higher = stronger binding
Shared flanks, not repeated: GGGAGUUCUACAGUCCGACGAUC … UGGAAUUCUCGGGUGCCAA
Construct (chain): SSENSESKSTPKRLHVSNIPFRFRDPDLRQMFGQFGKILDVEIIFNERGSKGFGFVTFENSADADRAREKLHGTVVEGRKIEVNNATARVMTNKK
Strand	RBNS enrichment (R)
ACUUGUAGAUUCCUGAAUUUAUUCCAUACAUAAUUAUUUCCUUAAGUUAUUUAAUUAUUAAAGGUGCCACGGUGGGACCUUUGGGAUGACUUAAAAAGGGUUCUUUGUUG	0.427
CCAGGGACUGUCUACAGCAGCCACAGCCACUGUGCACAAUGGACAGGGUGCCCAGGUCCUCGGAGCUUUGGCUUGGCAUCUUGGGUUCAUUUGAUUUUUUUUUUUAAAGA	0.388
ACAACUGAAUGCUAUAAAAGUGUUUUGCUGUGUACACAUAAGAUACUGUUCGUUAAAAUAAGCAUUCCCUUGACAGCACAGGAAGAAAAGCGAGGGAAAUGUAUGGAUUA	1.15
UAUUUAAAUAACAUCAACAGAACAACUUCACUUUGGGCCAAACAUUUGAAAAACUUUUUAUAAAAAAUUGUUUGAUAUUUCUUAAUGUCUGCUCUGAGCCUUAAAACACA	0.544
ACCUGAGAAUGGCCGGAGACCUCAGAUAUGUGUCUCUGCCAGUUGACUGGGCUGGUCCCUCUCAUUUGUACAGUCUGAAUGACAGUUCUUCUUAUCAUUCAGACGUCCCU	0.207
GAGAAAUGUCCAAAAGAGAUCUGCUGAUCUGCUGAGAGUUUCAAACAAACAAAAAAAUAAUCUCUAUGUAUGUGUUGGAUAAAGUCUACAGACUGACUAACAUGCAUUAG	0.48
ACAAUGGAGGGCACCUCCUGUCACCCCCCUCCCGGAGUAGCCACGACUCCAGCCACCACCCACUGACGUUAUUUUUAUACUAGAUGAAGAGGUCAACAGCAGGCAUGGGG	0.626
CUGGUUAUUUCUUGUCUUCCAUCUUAGAAGAAUUGUGUUUCUUCAGGAUACUCUUGUACCUGUGGUUCAUGCUUGAAAUGUUAAAGAUUCCUUAAUCCAACUUAUACCGG	0.318

Series 2
Cell line: HEK-293T
Read-out: pseudovirus infection
Method: FDA-approved drug library screen
Organism: VSV pseudotyped with SARS-CoV-2 spike
Tested at: 10 µM
Time: 16 h
Relative to: vehicle-treated
Compound	GFP-positive cells
CCn1nc(C(=O)O)c(=O)c2cc3c(cc21)OCO3	97.7%
Cc1cc2nc3c(=O)[nH]c(=O)nc-3n(C[C@H](O)[C@H](O)[C@H](O)CO)c2cc1C	76.6%
O=C(OCc1ccccc1)c1ccccc1	103%

Series 3
Target: Replicase polyprotein 1ab, main protease (rep, Severe acute respiratory syndrome coronavirus 2, UniProt P0DTD1)
Read-out: enzyme activity
Mode: inhibitor
Tested at: 20 µM
SMILES	inhibition [%]
C[C@@H](CN1CC(=O)NC(=O)C1)N1CC(=O)NC(=O)C1	-22.9
O=C1/C(=C/c2ccc([N+](=O)[O-])cc2)CS(=O)(=O)C/C1=C\c1ccc([N+](=O)[O-])cc1	-14.4
O=C1OC2(c3cc(I)c(O)c(I)c3Oc3c2cc(I)c(O)c3I)c2c(Cl)c(Cl)c(Cl)c(Cl)c21	92.1

Series 4
Target: Replicase polyprotein 1ab, polymerase (rep, Severe acute respiratory syndrome coronavirus 2, UniProt P0DTD1)
Read-out: enzyme activity
Mode: inhibitor
Tested at: 20 µM
Compound	inhibition [%]
Cc1cc(O)cc(C)c1Cl	3.66
CC(Cc1ccc(O)cc1)NCC(O)c1cc(O)cc(O)c1 (centres unmarked)	4.2
CCc1cccc(N(C)C(N)=Nc2cccc3ccccc23)c1	1.27
COc1cc(/C=C/C(=O)N2CCCCCCC2)cc(OC)c1OC	1.78
O=S(=O)(O)NC1CCCCC1	-3.44
CC(=O)[C@H]1CC[C@H]2[C@@H]3C[C@H](C)C4=CC(=O)CC[C@]4(C)[C@H]3[C@@H](O)C[C@]12C	19.4
CCN(CC)CCOC(=O)c1cc(Cl)c(N)cc1OC	3.1
CC1=C(CCC(=O)O)c2cc3[nH]c(cc4nc(cc5[nH]c(cc1n2)c(C)c5C(C)O)C(C)=C4C(C)O)c(C)c3CCC(=O)O (centres unmarked)	99.5
CN1CCN(c2ccc3ccccc3n2)CC1	1.41
OCC(O)CN1CCN(c2ccccc2)CC1 (centres unmarked)	5.12
Cc1ncc([N+](=O)[O-])n1CC(O)CN1CCOCC1 (centres unmarked)	-3.19
O=C(O)/C=C/c1ccc(O)c(O)c1	5.69
N=C(N)c1cc2ccc(OC(=O)c3cccs3)cc2s1	12.2
C/C=C1\[C@H]2C=C(C)C[C@]1(N)c1ccc(=O)[nH]c1C2	-5.59
CC(CN1c2ccccc2Sc2ccccc21)N(C)C (centres unmarked)	14
c1cc(CN2CCCCC2)cc(OCCCNc2nc3ccccc3s2)c1	-0.43
O=C(NOCC1CC1)c1ccc(F)c(F)c1Nc1ccc(I)cc1Cl	-0.7
Nc1ncn([C@H]2C[C@H](O)[C@@H](CO)O2)c(=O)n1	2.45
Cc1csc(-c2nnc(Nc3ccc(Oc4ncccc4-c4ccnc(N)n4)cc3)c3ccccc23)c1	5.51
Cc1ccc2c(=O)c3ccccc3n(CCCN)c2c1C	-30.5
CCc1oc2ccccc2c1C(=O)c1ccc(OCC(=O)O)cc1	5.47
CCN1CCN(C(=O)N[C@@H](C(=O)N[C@@H]2C(=O)N3C(C(=O)O)=C(CSc4nnnn4C)CS[C@H]23)c2ccc(O)cc2)C(=O)C1=O	17
N=C(N)N	4.76
CNC(=O)[C@H]1O[C@@H](n2cnc3c(NCc4cccc(I)c4)ncnc32)[C@H](O)[C@@H]1O	-0.62
CCCOC(=O)c1ccc(O)cc1	2.25

Series 5
Target: TAR DNA-binding protein 43, full length, His tag (TARDBP, Homo sapiens, UniProt Q13148, residues 1-414)
Method: RNA Bind-n-Seq
Molecule type: RNA
Matrix: in vitro
Tested at: 20 nM
Setting: 6-mer, flanks averaged, single round
With: 150 mM LiCl
Relative to: input library
Direction: higher = stronger binding
Strand	6-mer enrichment (R)
CGGUUU	1.01
UGACCA	0.88
UCCUUU	1.06
CAACAG	0.816

Single results of other studies
Matrix: in vitro
Direction: higher = stronger binding
EIF4A1: Eukaryotic initiation factor 4A-I (EIF4A1, Homo sapiens, UniProt P60842, residues 1-406, full length assumed)
UniProt P60842, sequence (whole entry, looked up): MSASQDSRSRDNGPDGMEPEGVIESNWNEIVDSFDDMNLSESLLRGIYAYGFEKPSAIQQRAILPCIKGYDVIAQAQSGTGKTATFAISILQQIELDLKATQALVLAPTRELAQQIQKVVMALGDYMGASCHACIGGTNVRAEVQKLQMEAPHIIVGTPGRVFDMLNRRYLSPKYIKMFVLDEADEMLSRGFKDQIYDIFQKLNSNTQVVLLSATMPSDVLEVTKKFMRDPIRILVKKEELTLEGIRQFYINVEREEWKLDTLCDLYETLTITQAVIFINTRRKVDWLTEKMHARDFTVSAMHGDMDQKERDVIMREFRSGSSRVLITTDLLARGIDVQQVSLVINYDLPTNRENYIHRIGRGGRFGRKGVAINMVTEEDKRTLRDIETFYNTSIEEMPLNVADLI
KLF3 full length: Krueppel-like factor 3, full length (KLF3, Homo sapiens, UniProt P57682, residues 1-345)
UniProt P57682, sequence (whole entry, looked up): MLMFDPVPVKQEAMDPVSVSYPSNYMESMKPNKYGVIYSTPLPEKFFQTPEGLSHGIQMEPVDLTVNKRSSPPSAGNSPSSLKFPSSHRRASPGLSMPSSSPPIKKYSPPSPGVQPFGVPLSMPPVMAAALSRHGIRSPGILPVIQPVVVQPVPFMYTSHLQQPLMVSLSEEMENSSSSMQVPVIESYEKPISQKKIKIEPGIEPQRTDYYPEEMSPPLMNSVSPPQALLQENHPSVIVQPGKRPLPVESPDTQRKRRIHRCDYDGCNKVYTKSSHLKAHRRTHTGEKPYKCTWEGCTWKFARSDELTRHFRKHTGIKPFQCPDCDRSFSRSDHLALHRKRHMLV
Strand	target	test	system	conditions	how to read	measurement	result
GAGGCCGACGACGTCGTGCCTCCTGGCACGACGTCGTCGGCCTCACACTC (5mC at 9 15 35)	Cyclic AMP-responsive element-binding protein 1, full length (CREB1, Homo sapiens, UniProt P16220, residues 1-327)	protein-binding microarray	hairpin DNA	not given, whole hairpin DNA, median over replicate spots	relative to: not given	median fluorescence	3410 a.u.
CUAC	EIF4A1	RNA Bind-n-Seq	RNA	15 pmol, 4-mer, random 30-nt RNA, single round, with: DMSO vehicle, 2 mM AMP-PNP	relative to: input library	4-mer enrichment	0.921 fold
GAGGCCGACCACCGCCAGCCTCCTGGCTGGCGGTGGTCGGCCTCACACTC (5mC at 31)	KLF3 full length	protein-binding microarray	hairpin DNA	not given, whole hairpin DNA, median over replicate spots	relative to: not given	median fluorescence	8520 a.u.
CGGA	EIF4A1	RNA Bind-n-Seq	RNA	90 pmol, 4-mer, random 30-nt RNA, single round, with: 3 µM DMDA-PatA, 2 mM ADP, 2 mM phosphate	relative to: input library	4-mer enrichment	0.951 fold
GAGGCCGAACACGCCCAGCCTCCTGGCTGGGCGTGTTCGGCCTCACACTC	KLF3 full length	protein-binding microarray	hairpin DNA	not given, whole hairpin DNA, median over replicate spots	relative to: not given	median fluorescence	8710 a.u.
CUUC	EIF4A1	RNA Bind-n-Seq	RNA	90 pmol, 4-mer, random 30-nt RNA, single round, with: 3 µM iPr-DMDA-PatA, 2 mM ADP, 2 mM phosphate	relative to: input library	4-mer enrichment	0.924 fold
GAGGCCTTTCCCCAAAGCCTCCTGGCTTTGGGGAAAGGCCTCACACTCTTTCCCTACACG (5mC at 13)	Signal transducer and activator of transcription 1-alpha/beta, full length (STAT1, Homo sapiens, UniProt P42224, residues 1-750)	protein-binding microarray	hairpin DNA	not given, whole hairpin DNA, median over replicate spots	relative to: not given	median fluorescence	973 a.u.

Excerpt of the above (series 3):
SMILES	inhibition [%]
O=C1/C(=C/c2ccc([N+](=O)[O-])cc2)CS(=O)(=O)C/C1=C\c1ccc([N+](=O)[O-])cc1	-14.4
C[C@@H](CN1CC(=O)NC(=O)C1)N1CC(=O)NC(=O)C1	-22.9
O=C1OC2(c3cc(I)c(O)c(I)c3Oc3c2cc(I)c(O)c3I)c2c(Cl)c(Cl)c(Cl)c(Cl)c21	92.1
